# Measured values collected from several papers.
# Each numbered part is a random draw from the data of one study; scales do not carry over between parts.
# UniProt P11802, sequence (whole entry, looked up): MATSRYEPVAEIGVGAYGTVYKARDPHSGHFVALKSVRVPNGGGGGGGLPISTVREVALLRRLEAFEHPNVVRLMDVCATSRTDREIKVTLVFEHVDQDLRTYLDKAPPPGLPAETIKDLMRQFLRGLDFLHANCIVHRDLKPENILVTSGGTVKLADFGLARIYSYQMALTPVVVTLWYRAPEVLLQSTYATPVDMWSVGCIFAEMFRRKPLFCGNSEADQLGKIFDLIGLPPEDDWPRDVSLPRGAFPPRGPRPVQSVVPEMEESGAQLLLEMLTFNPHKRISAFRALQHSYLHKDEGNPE
# UniProt P42336, sequence (whole entry, unmodified, looked up): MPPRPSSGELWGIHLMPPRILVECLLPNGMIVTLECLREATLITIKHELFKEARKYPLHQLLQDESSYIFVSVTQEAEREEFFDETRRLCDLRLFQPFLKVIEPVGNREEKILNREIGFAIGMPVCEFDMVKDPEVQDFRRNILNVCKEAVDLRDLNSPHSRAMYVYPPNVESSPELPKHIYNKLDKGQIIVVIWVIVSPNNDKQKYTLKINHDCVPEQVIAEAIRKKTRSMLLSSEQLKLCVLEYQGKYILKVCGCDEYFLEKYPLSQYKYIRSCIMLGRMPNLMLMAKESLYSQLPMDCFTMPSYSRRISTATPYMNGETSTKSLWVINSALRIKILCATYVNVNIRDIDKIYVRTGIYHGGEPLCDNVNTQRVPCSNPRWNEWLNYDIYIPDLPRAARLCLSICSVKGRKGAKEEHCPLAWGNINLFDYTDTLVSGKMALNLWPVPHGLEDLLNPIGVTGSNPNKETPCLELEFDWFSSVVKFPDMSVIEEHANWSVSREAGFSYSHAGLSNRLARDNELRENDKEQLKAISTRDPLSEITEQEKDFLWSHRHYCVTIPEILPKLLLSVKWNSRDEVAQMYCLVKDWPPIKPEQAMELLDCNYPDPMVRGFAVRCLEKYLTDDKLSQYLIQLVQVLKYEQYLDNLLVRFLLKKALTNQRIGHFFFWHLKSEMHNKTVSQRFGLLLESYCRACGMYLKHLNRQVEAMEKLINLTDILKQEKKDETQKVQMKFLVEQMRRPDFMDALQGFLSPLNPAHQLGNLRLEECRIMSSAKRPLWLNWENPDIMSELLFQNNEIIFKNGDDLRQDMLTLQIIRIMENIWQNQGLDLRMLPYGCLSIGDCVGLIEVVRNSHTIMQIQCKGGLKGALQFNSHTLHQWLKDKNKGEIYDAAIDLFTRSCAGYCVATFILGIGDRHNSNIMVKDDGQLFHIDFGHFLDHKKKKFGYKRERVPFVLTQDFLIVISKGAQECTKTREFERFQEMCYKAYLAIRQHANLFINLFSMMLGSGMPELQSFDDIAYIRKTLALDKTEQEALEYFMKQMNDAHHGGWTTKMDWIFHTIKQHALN
# UniProt Q9BYP7, sequence (whole entry, looked up): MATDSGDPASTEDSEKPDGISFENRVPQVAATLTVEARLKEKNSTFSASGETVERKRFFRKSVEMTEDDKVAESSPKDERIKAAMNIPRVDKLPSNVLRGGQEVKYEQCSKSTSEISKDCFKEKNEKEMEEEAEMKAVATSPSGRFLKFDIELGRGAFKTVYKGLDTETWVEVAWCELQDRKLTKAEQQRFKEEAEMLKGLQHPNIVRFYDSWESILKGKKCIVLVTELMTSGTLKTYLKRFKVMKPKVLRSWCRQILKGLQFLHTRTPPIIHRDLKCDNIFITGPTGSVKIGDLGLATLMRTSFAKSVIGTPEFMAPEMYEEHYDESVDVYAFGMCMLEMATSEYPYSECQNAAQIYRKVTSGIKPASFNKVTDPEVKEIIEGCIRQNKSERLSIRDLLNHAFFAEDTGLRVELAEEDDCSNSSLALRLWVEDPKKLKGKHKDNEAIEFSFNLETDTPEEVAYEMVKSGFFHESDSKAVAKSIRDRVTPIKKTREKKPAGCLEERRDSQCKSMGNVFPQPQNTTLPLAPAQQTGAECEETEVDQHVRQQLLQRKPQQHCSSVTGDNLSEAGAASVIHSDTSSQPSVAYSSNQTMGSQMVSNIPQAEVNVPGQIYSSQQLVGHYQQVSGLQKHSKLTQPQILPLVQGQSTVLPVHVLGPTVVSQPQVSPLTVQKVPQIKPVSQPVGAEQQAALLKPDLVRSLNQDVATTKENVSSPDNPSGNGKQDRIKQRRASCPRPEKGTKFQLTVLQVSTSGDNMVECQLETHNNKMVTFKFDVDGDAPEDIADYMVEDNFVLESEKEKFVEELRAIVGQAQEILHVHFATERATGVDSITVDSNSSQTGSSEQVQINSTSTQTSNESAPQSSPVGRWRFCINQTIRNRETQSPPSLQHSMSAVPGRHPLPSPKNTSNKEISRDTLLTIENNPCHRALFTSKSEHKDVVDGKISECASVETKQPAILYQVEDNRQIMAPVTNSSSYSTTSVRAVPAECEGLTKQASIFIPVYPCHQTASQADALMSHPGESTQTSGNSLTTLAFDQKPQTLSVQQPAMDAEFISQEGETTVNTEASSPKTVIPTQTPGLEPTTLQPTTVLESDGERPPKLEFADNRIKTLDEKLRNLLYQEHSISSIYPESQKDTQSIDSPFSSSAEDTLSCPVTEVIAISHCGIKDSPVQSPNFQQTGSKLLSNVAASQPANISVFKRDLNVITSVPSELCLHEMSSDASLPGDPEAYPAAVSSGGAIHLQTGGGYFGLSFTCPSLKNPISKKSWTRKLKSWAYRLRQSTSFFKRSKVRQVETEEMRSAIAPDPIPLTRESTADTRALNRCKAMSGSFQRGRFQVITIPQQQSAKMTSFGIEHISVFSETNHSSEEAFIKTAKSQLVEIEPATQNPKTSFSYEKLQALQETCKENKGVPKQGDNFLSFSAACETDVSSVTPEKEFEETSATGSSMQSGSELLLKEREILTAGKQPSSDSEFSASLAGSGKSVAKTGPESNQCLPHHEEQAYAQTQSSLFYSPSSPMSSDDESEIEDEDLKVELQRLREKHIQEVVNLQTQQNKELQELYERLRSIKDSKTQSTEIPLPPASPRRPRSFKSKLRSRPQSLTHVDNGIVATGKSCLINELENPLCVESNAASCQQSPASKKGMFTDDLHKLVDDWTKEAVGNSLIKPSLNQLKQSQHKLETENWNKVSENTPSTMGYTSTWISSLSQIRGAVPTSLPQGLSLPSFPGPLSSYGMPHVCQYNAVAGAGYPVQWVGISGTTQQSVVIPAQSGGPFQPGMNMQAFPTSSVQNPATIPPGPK
# UniProt O95819, sequence (whole entry, looked up): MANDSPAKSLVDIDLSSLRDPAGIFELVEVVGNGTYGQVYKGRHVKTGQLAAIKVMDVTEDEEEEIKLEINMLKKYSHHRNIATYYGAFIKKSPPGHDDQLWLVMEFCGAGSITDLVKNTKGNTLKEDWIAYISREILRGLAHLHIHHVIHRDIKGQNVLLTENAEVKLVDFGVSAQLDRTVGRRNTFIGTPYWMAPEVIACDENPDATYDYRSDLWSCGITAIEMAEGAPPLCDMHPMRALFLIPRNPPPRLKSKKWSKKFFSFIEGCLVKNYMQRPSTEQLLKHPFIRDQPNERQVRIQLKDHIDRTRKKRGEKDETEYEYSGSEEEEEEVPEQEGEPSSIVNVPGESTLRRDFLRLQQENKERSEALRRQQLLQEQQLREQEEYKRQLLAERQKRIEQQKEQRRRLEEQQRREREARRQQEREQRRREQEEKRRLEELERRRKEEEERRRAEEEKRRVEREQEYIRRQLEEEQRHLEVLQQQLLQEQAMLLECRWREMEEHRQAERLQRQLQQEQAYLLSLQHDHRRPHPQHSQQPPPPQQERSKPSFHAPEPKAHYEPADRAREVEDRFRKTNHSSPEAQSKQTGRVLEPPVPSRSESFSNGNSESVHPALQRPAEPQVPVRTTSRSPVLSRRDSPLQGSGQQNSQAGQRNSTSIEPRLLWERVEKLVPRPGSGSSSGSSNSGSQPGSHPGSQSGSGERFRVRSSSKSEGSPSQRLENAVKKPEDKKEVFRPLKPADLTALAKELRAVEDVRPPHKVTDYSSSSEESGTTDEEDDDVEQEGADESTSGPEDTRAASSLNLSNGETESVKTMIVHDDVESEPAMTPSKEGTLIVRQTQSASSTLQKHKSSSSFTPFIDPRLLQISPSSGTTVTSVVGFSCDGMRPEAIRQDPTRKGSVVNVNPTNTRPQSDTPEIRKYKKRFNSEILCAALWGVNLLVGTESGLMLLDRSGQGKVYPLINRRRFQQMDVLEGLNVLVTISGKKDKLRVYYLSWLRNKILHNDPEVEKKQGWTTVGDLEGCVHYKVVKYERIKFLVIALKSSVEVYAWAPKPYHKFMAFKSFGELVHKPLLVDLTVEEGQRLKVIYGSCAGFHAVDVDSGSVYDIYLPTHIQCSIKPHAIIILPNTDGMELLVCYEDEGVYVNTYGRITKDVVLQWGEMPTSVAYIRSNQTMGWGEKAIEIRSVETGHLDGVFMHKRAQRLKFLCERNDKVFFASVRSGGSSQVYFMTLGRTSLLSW
# UniProt Q9UEE5, sequence (whole entry, looked up): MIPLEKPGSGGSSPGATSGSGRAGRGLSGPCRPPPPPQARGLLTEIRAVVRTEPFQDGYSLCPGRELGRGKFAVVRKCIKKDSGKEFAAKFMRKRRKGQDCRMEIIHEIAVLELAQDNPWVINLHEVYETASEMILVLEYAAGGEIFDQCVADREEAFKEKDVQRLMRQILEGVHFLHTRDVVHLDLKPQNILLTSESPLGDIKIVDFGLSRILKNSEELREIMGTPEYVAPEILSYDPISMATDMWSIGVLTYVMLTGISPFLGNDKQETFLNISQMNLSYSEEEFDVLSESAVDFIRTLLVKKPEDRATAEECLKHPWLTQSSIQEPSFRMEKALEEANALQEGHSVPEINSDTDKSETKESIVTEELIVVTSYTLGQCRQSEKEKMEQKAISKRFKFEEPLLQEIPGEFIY

# Series 1
# Cell line: A-375
# Concentration: 100 µM
# Time: 18 h
Compound,viability
Cc1nnc(NS(=O)(=O)c2ccc(N)cc2)s1,97.4%
Nc1ccc(S(=O)(=O)NC(=O)c2ccccc2)cc1,97.7%
Cc1ccsc1C(=CCCN1CCC[C@@H](C(=O)O)C1)c1sccc1C,102%
CC(C)C[C@H](NC(=O)CNC(=O)c1cc(Cl)ccc1Cl)B1OC(=O)C(CC(=O)O)(CC(=O)O)O1,25.3%
CC1(C)S[C@@H]2[C@H](NC(=O)COc3ccccc3)C(=O)N2[C@H]1C(=O)O,103%
C#C[C@]1(O)CC[C@H]2[C@@H]3CCc4cc(OC5CCCC5)ccc4[C@H]3CC[C@@]21C,8.4%
COC(=O)[C@@H]1CC2=CC(=O)CC[C@]2(C)[C@@]23O[C@@H]2C[C@@]2(C)[C@@H](CC[C@@]24CCC(=O)O4)[C@H]13,90.8%
O=c1[nH]c(=O)n(C2CCCO2)cc1F (stereo not shown),87.1%
COc1cc2nc(N(C)CCCNC(=O)C3CCCO3)nc(N)c2cc1OC (stereo not shown),87.3%
CCCNS(=O)(=O)Nc1ncnc(OCCOc2ncc(Br)cn2)c1-c1ccc(Br)cc1,91.4%
CC1=NN(c2ccccc2)C(=O)C1,90.7%
O=C(O)c1cc(=O)c2c(OCC(O)COc3cccc4oc(C(=O)O)cc(=O)c34)cccc2o1,90%

# Series 2
# Structure (SMILES): Fc1ccc(-c2nc3n(c2-c2ccncc2)CCS3)cc1
# Observed: enzyme activity
# Mode: inhibitor
# Concentration: 0.5 µM
# Relative to: control
target,remaining activity
"Homeodomain-interacting protein kinase 4 (HIPK4, Homo sapiens, UniProt Q8NE63)",89.7%
"Tyrosine-protein kinase Srms (SRMS, Homo sapiens, UniProt Q9H3Y6)",102%
"Testis-specific serine/threonine-protein kinase 2 (TSSK2, Homo sapiens, UniProt Q96PF2)",93.2%
"cAMP-dependent protein kinase catalytic subunit gamma (PRKACG, Homo sapiens, UniProt P22612)",116%
"MAP kinase-activated protein kinase 3 (MAPKAPK3, Homo sapiens, UniProt Q16644)",95.5%
"Serine/threonine-protein kinase 16 (STK16, Homo sapiens, UniProt O75716)",106%
"Ribosomal protein S6 kinase alpha-6 (RPS6KA6, Homo sapiens, UniProt Q9UK32)",115%
"Mitogen-activated protein kinase kinase kinase kinase 4 (MAP4K4, Homo sapiens, UniProt O95819)",72.3%
"3-phosphoinositide-dependent protein kinase 1 (PDPK1, Homo sapiens, UniProt O15530)",109%
"Cyclin-dependent kinase 6, with cyclin D3 (CDK6, Homo sapiens, UniProt Q00534)",108%
"Cyclin-dependent kinase 4, with cyclin D3 (CDK4, Homo sapiens, UniProt P11802)",94.9%
"Serine/threonine-protein kinase 17A (STK17A, Homo sapiens, UniProt Q9UEE5)",99.4%
"Serine/threonine-protein kinase WNK3 (WNK3, Homo sapiens, UniProt Q9BYP7)",105%
"Ephrin type-B receptor 4 (EPHB4, Homo sapiens, UniProt P54760)",88%
"Ephrin type-A receptor 4 (EPHA4, Homo sapiens, UniProt P54764)",106%
"Phosphorylase b kinase gamma catalytic chain, skeletal muscle/heart isoform (PHKG1, Homo sapiens, UniProt Q16816)",94.6%
"Calcium/calmodulin-dependent protein kinase type II subunit beta (CAMK2B, Homo sapiens, UniProt Q13554)",90%
"Cyclin-dependent kinase 1, with cyclin B (CDK1, Homo sapiens, UniProt P06493)",91.4%
"Homeodomain-interacting protein kinase 2 (HIPK2, Homo sapiens, UniProt Q9H2X6)",99.2%
"Dual specificity tyrosine-phosphorylation-regulated kinase 3 (DYRK3, Homo sapiens, UniProt O43781)",103%
"Ephrin type-B receptor 1 (EPHB1, Homo sapiens, UniProt P54762)",106%
"Tyrosine-protein kinase receptor UFO (AXL, Homo sapiens, UniProt P30530)",95.8%

# Series 3
# Species: human
# Sample: microsomes or S9
# Concentration: 2 µM
# Time: 0.5 h
SMILES,remaining compound
CS(=O)(=O)N1CCN(CCCOc2ccc3c(c2)C(=O)C(c2cnc4ccccc4c2)=C3c2ccc(F)cc2F)CC1,84.6%
Cc1cc(C)n(-c2nncn2/N=C/c2cccc3ccccc23)n1,63.5%
Clc1ccc2c(c1)C=C(c1nnc(Cc3ccccc3)o1)C=CO2,76.6%
COc1cc(/C=C/C(=O)O)cc(S(=O)(=O)Nc2cccc(-c3n[nH]c4c3CCC4)c2)c1OC,94.5%
O[C@@H]1C[C@@H](c2nnc3n2CCOC3)C[C@@H]1CNc1ncc(Cl)cn1,76.8%
O=S1(=O)N=C(Nc2ccc3c(c2)Cc2ccccc2-3)c2ccccc21,> 99.9%
COC(=O)c1cc(C)sc1NC(=O)C1CC(=O)NN1C (stereo not shown),> 99%
Nc1ccc(-c2ccc(S(=O)(=O)c3cccc(N)c3)cc2N)cc1,31.2%
Cc1nn(CCc2nn[nH]n2)c(C)c1Br,31.4%
NCC1=CCCN(c2nc3c(cc2F)c(=O)c(C(=O)O)cn3-c2ncc(F)cc2Cl)C1,45%
CC1(NC(=O)c2ccc3cc[nH]c3n2)CC=CCC1 (stereo not shown),25.2%

# Series 4
# SMILES: Cc1c[nH]c2nccc(Oc3c(F)cc(Nc4cc(Cl)nc(N)n4)cc3F)c12
# Observed: cell-free assay
# Method: competition with immobilised ligand
# Concentration: 0.1 µM
target,remaining binding [%]
"Mast/stem cell growth factor receptor Kit (KIT, Homo sapiens, UniProt P10721, A829P)",70
"Cyclin-dependent kinase 5 (CDK5, Homo sapiens, UniProt Q00535)",94
"Serine/threonine-protein kinase NLK (NLK, Homo sapiens, UniProt Q9UBE8)",100
"Casein kinase I isoform gamma-1 (CSNK1G1, Homo sapiens, UniProt Q9HCP0)",100
"Casein kinase I isoform alpha (CSNK1A1, Homo sapiens, UniProt P48729)",96
"Serine/threonine-protein kinase N2 (PKN2, Homo sapiens, UniProt Q16513)",100
"Microtubule-associated serine/threonine-protein kinase 1 (MAST1, Homo sapiens, UniProt Q9Y2H9)",100
"Proto-oncogene tyrosine-protein kinase receptor Ret (RET, Homo sapiens, UniProt P07949, M918T)",100
"Phosphatidylinositol 4,5-bisphosphate 3-kinase catalytic subunit alpha isoform (PIK3CA, Homo sapiens, UniProt P42336, C420R)",89
"Tyrosine-protein kinase FRK (FRK, Homo sapiens, UniProt P42685)",100
"Hormonally up-regulated neu tumor-associated kinase (HUNK, Homo sapiens, UniProt P57058)",100
"Receptor-type tyrosine-protein kinase FLT3 (FLT3, Homo sapiens, UniProt P36888, F691L/ITD)",54
"Testis-specific serine/threonine-protein kinase 1 (TSSK1B, Homo sapiens, UniProt Q9BXA7)",95
"Serine/threonine-protein kinase MAK (MAK, Homo sapiens, UniProt P20794)",84
"Dual specificity mitogen-activated protein kinase kinase 3 (MAP2K3, Homo sapiens, UniProt P46734)",100
"Cyclin-dependent kinase 4, with cyclin D3 (CDK4, Homo sapiens, UniProt P11802)",100
"Ribosomal protein S6 kinase alpha-3, C-terminal kinase domain (RPS6KA3, Homo sapiens, UniProt P51812)",73
"Tyrosine-protein kinase receptor Tie-1 (TIE1, Homo sapiens, UniProt P35590)",94
"Protein kinase C eta type (PRKCH, Homo sapiens, UniProt P24723)",74
"Dual specificity protein kinase CLK3 (CLK3, Homo sapiens, UniProt P49761)",91
"Ribosomal protein S6 kinase alpha-2, C-terminal kinase domain (RPS6KA2, Homo sapiens, UniProt Q15349)",100
"Serine/threonine-protein kinase PLK2 (PLK2, Homo sapiens, UniProt Q9NYY3)",59
"Phosphatidylinositol 4,5-bisphosphate 3-kinase catalytic subunit alpha isoform (PIK3CA, Homo sapiens, UniProt P42336, E545K)",82
"Receptor-type tyrosine-protein kinase FLT3 (FLT3, Homo sapiens, UniProt P36888, D835V/ITD)",87
"Cyclin-dependent kinase-like 1 (CDKL1, Homo sapiens, UniProt Q00532)",100

# For quick reference, copied from above (series 2):
target,remaining activity
"Serine/threonine-protein kinase 17A (STK17A, Homo sapiens, UniProt Q9UEE5)",99.4%
"Serine/threonine-protein kinase WNK3 (WNK3, Homo sapiens, UniProt Q9BYP7)",105%
"Ephrin type-B receptor 4 (EPHB4, Homo sapiens, UniProt P54760)",88%
"Ephrin type-A receptor 4 (EPHA4, Homo sapiens, UniProt P54764)",106%
"Phosphorylase b kinase gamma catalytic chain, skeletal muscle/heart isoform (PHKG1, Homo sapiens, UniProt Q16816)",94.6%
"Calcium/calmodulin-dependent protein kinase type II subunit beta (CAMK2B, Homo sapiens, UniProt Q13554)",90%
"Cyclin-dependent kinase 1, with cyclin B (CDK1, Homo sapiens, UniProt P06493)",91.4%
"Homeodomain-interacting protein kinase 2 (HIPK2, Homo sapiens, UniProt Q9H2X6)",99.2%
"Dual specificity tyrosine-phosphorylation-regulated kinase 3 (DYRK3, Homo sapiens, UniProt O43781)",103%
"Ephrin type-B receptor 1 (EPHB1, Homo sapiens, UniProt P54762)",106%
"Tyrosine-protein kinase receptor UFO (AXL, Homo sapiens, UniProt P30530)",95.8%
